Experimental data pooled from the literature.
Values joined by “and” are separate records of one study, mostly repeats; a detail may differ. Numbers after ± are the reported error.

CCCC[C@H](NC(=O)[C@@H](NC(=O)[C@H](CC(=O)O)NC(=O)[C@H](CCC(N)=O)NC(=O)[C@H](CC(C)C)NC(=O)[C@H](CC(C)C)NC(=O)[C@H](CCCN)NC(=O)[C@H](CCCNC(=N)N)NC(=O)[C@H](C)NC(=O)[C@H](CO)NC(=O)[C@H](CC(C)C)NC(=O)[C@H](CCC(N)=O)NC(=O)[C@H](CC)NC(=O)[C@H](CC(C)C)NC(=O)[C@@H](NC(=O)[C@H](CCCN)NC(=O)[C@H](CCCNC(=N)N)NC(=O)[C@H](Cc1ccc(O)cc1)NC(=O)[C@H](CO)NC(=O)[C@H](CC(N)=O)NC(=O)[C@@H](NC(=O)[C@H](Cc1ccccc1)NC(=O)[C@@H](NC(=O)[C@H](C)NC(=O)[C@H](CC(=O)O)NC(=O)[C@@H](C)NC(=O)[C@H](Cc1ccc(O)cc1)NC)[C@@H](C)CC)[C@@H](C)O)C(C)C)[C@@H](C)CC)C(=O)N[C@@H](CC(=O)O)C(=O)NCCCCNC(=N)N
serum GH level (GH release, ELISA; male Sprague-Dawley rat, anaesthetised, serum; subcutaneous, 3 µg/kg, 30 min): 141 ± 12.3 ng/mL

C[C@H](CC(=O)C[C@@H](C)[C@H]1C[C@H](O)[C@@]2(C)C3=C(C(=O)C[C@]12C)[C@@]1(C)CCC(=O)C(C)(C)[C@@H]1C[C@@H]3O)C(=O)O
glucose-6-phosphatase activity (mouse, STZ-induced type 1 diabetes, liver; dose not given): 28.5 ± 1.34 U/mg tissue

COc1cc(C(=O)OCCCN2CCCN(CCCOC(=O)c3cc(OC)c(OC)c(OCc4ccc([N+](=O)[O-])cc4)c3)CC2)cc(OC)c1OC
cold hypersensitivity (acetone test; db/db mouse; intrathecal, 30 nmol): inhibited

[2H]C([2H])([2H])C(c1cc2nnc(-c3cc(F)ccc3F)n2nc1OCc1ncnn1C)(C([2H])([2H])[2H])C([2H])([2H])[2H]
seizure severity change (amygdala-kindled Wistar rats; oral, 30 mg/kg, 2 h before stimulation, Racine scale, unit not given; baseline: baseline): -3.8

O=C(CCN1CCC(O)CC1)Nc1nc(-c2ccccc2)cs1
DPPH radical scavenging (0.2 M, 1 h): 36%

CC[C@H](C)[C@H](NC(=O)[C@H](CC(N)=O)NC(=O)[C@H](CC(N)=O)NC(=O)[C@H](CCCNC(=N)N)NC(=O)[C@H](CC(N)=O)NC(=O)[C@H](CCCNC(=N)N)NC(=O)[C@H](CCCCN)NC(=O)[C@@H](NC(=O)[C@H](CC(N)=O)NC(=O)[C@H](CCSC)NC(=O)[C@H](CC(C)C)NC(=O)[C@H](Cc1c[nH]c2ccccc12)NC(=O)[C@H](CCC(N)=O)NC(=O)[C@@H](NC(=O)[C@H](Cc1ccccc1)NC(=O)[C@H](CC(=O)O)NC(=O)[C@H](CCC(N)=O)NC(=O)[C@H](C)NC(=O)[C@H](CCCNC(=N)N)NC(=O)[C@H](CCCNC(=N)N)NC(=O)[C@H](CO)NC(=O)[C@H](CC(=O)O)NC(=O)[C@H](CC(C)C)NC(=O)[C@H](Cc1ccc(O)cc1)NC(=O)[C@H](CCCCN)NC(=O)[C@H](CO)NC(=O)[C@H](Cc1ccc(O)cc1)NC(=O)[C@H](CC(=O)O)NC(=O)[C@H](CO)NC(=O)[C@@H](NC(=O)[C@H](Cc1ccccc1)NC(=O)[C@@H](NC(=O)CNC(=O)[C@H](CCC(=O)O)NC(=O)[C@@H](CO)NC(=O)[C@@H](N)Cc1c[nH]cn1)[C@@H](C)O)[C@@H](C)O)C(C)C)[C@@H](C)O)C(=O)N[C@@H](C)C(=O)N[C@@H](CSCC(=O)NCCOCCOCCOCCOCCC(=O)O[C@H]1CC[C@@]2(C)C(=CC[C@H]3[C@@H]4CC[C@H]([C@H](C)CCCC(C)C)[C@@]4(C)CC[C@@H]32)C1)C(N)=O
β-hydroxybutyrate level (diet-induced obese mice, plasma; subcutaneous, 1.9 µmol/kg, 14 days, chronic dosing): 7.2 ± 0.4 mg/dL

CN(C)c1ccc(-c2oc3ccccc3c(=O)c2OCc2ccccc2)cc1
serum total cholesterol (diabetic rat; 5 mg/kg, 28 days, p-nitrophenyl β-glucoside induced): 136 ± 4.7 mg/dL

NS(=O)(=O)NCCc1ccccc1F
ED50 (MES seizures; rat; oral): 36 mg/kg

COc1ccc2c(c1)c(CC(=O)OCOC(C)=O)c(C)n2C(=O)c1ccc(Cl)cc1
writhing count (BALB/c mice, acetic acid writhing; intraperitoneal, 10 mg/kg, 20 min count): 14.3 ± 1.43

Clc1ccc(C(c2c[nH]c3ccccc23)c2c[nH]c3ccccc23)cc1
loss of TH+ neurons (mice, MPTP/probenecid Parkinson model, substantia nigra pars compacta; oral, 25 mg/kg daily, 14 days; baseline: saline control): 35% and 35.3%

C[C@H](NC(=O)COC(=O)[C@H](C)NC(=O)CO)C(=O)O
depolymerization rate constant (water; pH 7, 65 °C): 62.3 h⁻¹

CC[C@H](C)[C@H](NC(=O)[C@H](Cc1c[nH]cn1)NC(=O)[C@@H]1CSSC[C@H](NC(=O)[C@H](Cc2c[nH]cn2)NC(=O)[C@H](Cc2ccccc2)NC(=O)CCC(C(=O)O)N2CCN(CC(=O)O)CCN(CC(=O)O)CC2)C(=O)N2C[C@H](O)C[C@H]2C(=O)N[C@@H](Cc2ccc(O)c(Cl)c2)C(=O)N[C@@H](CC(=O)O)C(=O)N[C@@H](CC(C)C)C(=O)N1)C(=O)N[C@@H](CC(C)C)C(=O)NCc1ccc(CNC(=O)CCC(C(=O)O)N2CCN(CC(=O)O)CCN(CC(=O)O)CC2)cc1 (some centres unmarked) [gallium-68 labelled]
thrombus to contralateral ratio (ex vivo gamma counting; rat, carotid crush thrombosis model, carotid artery; baseline: thrombosed over contralateral vessel): 3 to 4

CC(C)(O)c1ccc(N2Cc3c(ccnc3-c3ccc(F)cc3OCC(F)(F)F)C2=O)cc1
glucosylsphingosine level (Gaucher disease mouse model, plasma; 10 mg/kg, single dose; baseline: vehicle): 99 ± 6%

O=c1c(OCc2ccccc2)c(-c2cccc([N+](=O)[O-])c2)oc2ccccc12
serum LDL cholesterol (diabetic rat; 7.5 mg/kg, 28 days, p-nitrophenyl β-glucoside induced): 122 ± 3.31 mg/dL

CC[C@H]1[C@@H](O)[C@@H]2[C@H](CC[C@]3(C)[C@@H]([C@H](C)CCOS(=O)(=O)[O-])CC[C@@H]23)[C@@]2(C)CC[C@@H](O)C[C@@H]12.[Na+]
ballooning score (histology; ob/ob NASH mouse model, liver; oral, 10 mg/kg once daily, 8 weeks, scale 0 to 2; direction not given): 0.2 ± 0.1

O=C(O)[C@H]1O[C@@H](Oc2cc(O)c3c(=O)cc(-c4ccc(O)cc4)oc3c2)[C@H](O)[C@@H](O)[C@@H]1O
creatine kinase activity (decreased; Kunming mice, isoprenaline-induced myocardial infarction, serum; intravenous, 30 mg/kg daily for 7 days, day 7; baseline: model group): decreased

CCCCCCCOC(=O)Cc1c(C)n(C(=O)c2ccc(Cl)cc2)c2ccc(OC)cc12
analgesia (acetic acid writhing test; BALB/c mouse; intraperitoneal, 30 mg/kg; baseline: negative control): 83.1%

CCCC[C@H](NC(=O)[C@@H](NC(=O)[C@H](CC(=O)O)NC(=O)[C@H](CCC(N)=O)NC(=O)[C@H](CC(C)C)NC(=O)[C@H](CC(C)C)NC(=O)[C@H](CCCN)NC(=O)[C@H](CCCNC(=N)N)NC(=O)[C@H](C)NC(=O)[C@H](CO)NC(=O)[C@H](CC(C)C)NC(=O)[C@H](CCC(N)=O)NC(=O)[C@H](CC)NC(=O)[C@H](CC(C)C)NC(=O)[C@@H](NC(=O)[C@H](CCCN)NC(=O)[C@H](CCCNC(=N)N)NC(=O)[C@H](Cc1ccc(O)cc1)NC(=O)[C@H](CO)NC(=O)[C@@H](NC(=O)[C@@H](NC(=O)[C@H](Cc1ccccc1)NC(=O)[C@@H](NC(=O)[C@H](C)NC(=O)[C@H](CC(=O)O)NC(=O)[C@@H](C)NC(=O)[C@H](Cc1ccc(O)cc1)NC)[C@@H](C)CC)[C@@H](C)O)[C@@H](C)O)C(C)C)[C@@H](C)CC)C(=O)N[C@@H](CC(=O)O)C(=O)N[C@@H](CCCNC(=N)N)C(=O)NC
serum GH level (GH release, ELISA; male Sprague-Dawley rat, anaesthetised, serum; subcutaneous, 3 µg/kg, 0 min): 34.1 ± 1.2 ng/mL

COc1c2c(cc3oc(COC4OC(CO)C(O)C(O)C4O)cc(=O)c13)OC(C(C)(C)O)C2 (centres unmarked)
hot plate latency (analgesia; mouse; oral, 2 mg/kg, 1 h): 11.1 ± 1.87 s

C=C(c1ncc(C(=O)O)cn1)c1cc2c(cc1C)C(C)(C)CCC2(C)C
log2 fold change (RNA sequencing, measured: Mpeg1; rat, brain; dose not given, 24 h; baseline: vehicle): 0.44

COc1ccc2c(c1)c(CC(=O)OCC(=O)OC(C)(C)C)c(C)n2C(=O)c1ccc(Cl)cc1
writhing count (BALB/c mice, acetic acid writhing; intraperitoneal, 20 mg/kg, 20 min count): 12.5 ± 1.67

Cc1ccc(C(=O)Nc2ccc(CP(=O)(O)O)cc2CP(=O)(O)O)cc1NC(=O)c1cccc(NC(=O)Nc2cccc(C(=O)Nc3cc(C(=O)Nc4ccc(CP(=O)(O)O)cc4CP(=O)(O)O)ccc3C)c2)c1
APTT (human plasma; 329 µM): 56.1 ± 6.7 s

Cc1ncc([N+](=O)[O-])n1CCOCc1nnc(SCC(=O)c2ccc([N+](=O)[O-])cc2)o1
DPPH scavenging (75 µg/mL, 45 min): 62.3 ± 0.2%

COc1ccc(-c2oc3ccccc3c(=O)c2OCc2ccccc2)cc1
serum total cholesterol (diabetic rat; 5 mg/kg, 28 days, p-nitrophenyl β-glucoside induced): 125 ± 4.92 mg/dL

O=C(OCc1cccc(O)c1O)c1ccc(O)c(CO)c1
contractile response (C57BL/6J mice, aortic rings; dose not given, angiotensin II infusion, with: phenylephrine): no effect

CCCC[C@H](NC(=O)[C@@H](NC(=O)[C@H](CC(=O)O)NC(=O)[C@H](CCC(N)=O)NC(=O)[C@H](CC(C)C)NC(=O)[C@H](CC(C)C)NC(=O)[C@H](CCCN)NC(=O)[C@H](CCCNC(=N)N)NC(=O)[C@H](C)NC(=O)[C@H](CO)NC(=O)[C@H](CC(C)C)NC(=O)[C@H](CCC(N)=O)NC(=O)[C@H](CC)NC(=O)[C@H](CC(C)C)NC(=O)[C@@H](NC(=O)[C@H](CCCN)NC(=O)[C@H](CCCNC(=N)N)NC(=O)[C@H](Cc1ccc(O)cc1)NC(=O)[C@H](CO)NC(=O)[C@H](CCC(N)=O)NC(=O)[C@@H](NC(=O)[C@H](Cc1ccccc1)NC(=O)[C@@H](NC(=O)[C@H](C)NC(=O)[C@H](CC(=O)O)NC(=O)[C@@H](C)NC(=O)[C@H](Cc1ccc(O)cc1)NC)[C@@H](C)CC)[C@@H](C)O)C(C)C)[C@@H](C)CC)C(=O)N[C@@H](CC(=O)O)C(=O)N[C@@H](CCCNC(=N)N)C(=O)NCCCCC(N)=O
serum GH level (GH release, ELISA; male Sprague-Dawley rat, anaesthetised, serum; subcutaneous, 3 µg/kg, 30 min): 226 ± 19.8 ng/mL
